Measured values collected from several papers.
Every numbered part comes from another study and shows a few of its results, in no order.

Series 1 — cell line: HEK-293T; read-out: pseudovirus infection; organism: VSV pseudotyped with SARS-CoV-2 spike; tested at: 10 µM; time: 16 h; baseline: vehicle-treated
SMILES	GFP-positive cells [%]
CN(C)C/C=C/C(=O)Nc1cc2c(Nc3ccc(F)c(Cl)c3)ncnc2cc1O[C@H]1CCOC1	49.8
c1ccc(CC2=NCCN2)cc1	108
CC1=NS(=O)(=O)c2cc(Cl)ccc2N1	76.8

Series 2 — method: universal PBM; molecule type: double-stranded DNA, one strand shown; matrix: in vitro; tested at: 600 nM; reading: higher = stronger binding
Target: Sal-like protein 4, full length isoform A (SALL4, Homo sapiens, UniProt Q9UJQ4, residues 1-1053)
UniProt Q9UJQ4, sequence (whole entry, looked up): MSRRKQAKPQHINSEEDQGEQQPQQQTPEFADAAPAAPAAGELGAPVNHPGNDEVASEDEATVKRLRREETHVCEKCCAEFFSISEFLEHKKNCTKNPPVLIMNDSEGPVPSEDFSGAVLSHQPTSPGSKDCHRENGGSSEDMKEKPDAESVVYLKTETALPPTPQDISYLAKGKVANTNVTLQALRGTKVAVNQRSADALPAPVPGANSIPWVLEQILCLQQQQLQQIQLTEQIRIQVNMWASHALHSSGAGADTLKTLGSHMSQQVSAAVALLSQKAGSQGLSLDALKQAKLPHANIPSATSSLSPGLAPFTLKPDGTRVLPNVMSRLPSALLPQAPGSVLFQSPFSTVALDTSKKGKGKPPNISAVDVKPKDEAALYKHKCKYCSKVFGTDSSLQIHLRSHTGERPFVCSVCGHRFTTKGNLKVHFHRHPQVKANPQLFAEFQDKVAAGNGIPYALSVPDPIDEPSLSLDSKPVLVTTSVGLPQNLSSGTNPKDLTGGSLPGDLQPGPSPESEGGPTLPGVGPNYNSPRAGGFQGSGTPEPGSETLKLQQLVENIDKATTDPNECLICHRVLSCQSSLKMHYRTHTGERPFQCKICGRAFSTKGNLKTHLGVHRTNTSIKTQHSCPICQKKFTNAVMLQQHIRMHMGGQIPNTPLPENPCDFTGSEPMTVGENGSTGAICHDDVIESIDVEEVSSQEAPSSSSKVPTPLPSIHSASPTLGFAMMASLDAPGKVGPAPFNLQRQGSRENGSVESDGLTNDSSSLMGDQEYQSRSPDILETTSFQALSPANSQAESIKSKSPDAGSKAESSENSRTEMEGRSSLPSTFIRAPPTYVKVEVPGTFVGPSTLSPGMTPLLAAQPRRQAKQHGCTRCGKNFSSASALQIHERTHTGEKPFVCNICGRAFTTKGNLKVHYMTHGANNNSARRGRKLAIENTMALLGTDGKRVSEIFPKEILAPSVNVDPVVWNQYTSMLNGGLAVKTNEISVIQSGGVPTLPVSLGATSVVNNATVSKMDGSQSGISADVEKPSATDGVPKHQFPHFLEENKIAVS
Setting: 8-mer, flanks averaged, mean of replicates
Oligonucleotide	E-score
CAAGGATA	0.0308
CCTCGGGA	-0.291
CACGAACA	0.0567
CGTCATGA	-0.0812
AACAACAA	0.226
CAGACTAA	-0.0141
ACCCGCTC	-0.335
AGTGGTAT	0.123

Series 3 — method: protein-binding microarray; molecule type: double-stranded DNA, one strand shown; matrix: in vitro; tested at: 2200 nM top; setting: 60-bp whole probe; together with: salmon DNA 0.4 mg/ml; baseline: random background probes; reading: higher = stronger binding; all sequences stand within: GCCTAGCAC … GTCTTGATTCGCTTGACGCTGCTG
Target: Interferon regulatory factor 7, full length, phosphomimetic (IRF7, Homo sapiens, UniProt Q92985, residues 1-503, S471D/S472D/S475D/S476D/S477D/S483D/S484D/S487D)
Residues (chain): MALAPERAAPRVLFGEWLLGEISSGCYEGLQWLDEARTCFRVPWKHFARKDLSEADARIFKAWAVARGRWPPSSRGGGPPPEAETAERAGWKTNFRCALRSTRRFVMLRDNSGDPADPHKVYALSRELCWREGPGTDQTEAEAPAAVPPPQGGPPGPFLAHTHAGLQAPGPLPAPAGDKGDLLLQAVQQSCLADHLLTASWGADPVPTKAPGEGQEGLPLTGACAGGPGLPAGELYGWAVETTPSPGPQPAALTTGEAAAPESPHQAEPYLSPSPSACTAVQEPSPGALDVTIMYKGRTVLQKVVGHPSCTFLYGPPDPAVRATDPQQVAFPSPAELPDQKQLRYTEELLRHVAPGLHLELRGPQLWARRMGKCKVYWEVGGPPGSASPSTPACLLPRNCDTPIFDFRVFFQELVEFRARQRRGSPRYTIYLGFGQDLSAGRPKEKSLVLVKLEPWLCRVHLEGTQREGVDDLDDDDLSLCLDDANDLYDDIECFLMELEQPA
Oligonucleotide	fitted relative affinity
TTAGGTTTCCTTTTCCATTAGTGCTAG	5.08 z-score
AACCACATAGGAAGAACAACGTGCTAG	-0.319 z-score
GACGGTTTCCTTTCCCTCACGTGCTAG	4.51 z-score
GACGATTTCGGGTTTCGACACGTGCTA	5.05 z-score
GACGGACTGTGGACTGGGGACGTGCTA	-0.694 z-score
TTCACTTTAAATTAGACTTAGTGCTAG	0.335 z-score
TCAAACCCCATTCTCAGACTGTGCTAG	0.853 z-score
GACGGACTGGCGTTTCGGGACGTGCTA	0.0814 z-score

Series 4 — method: RNA Bind-n-Seq; molecule type: RNA; matrix: in vitro; tested at: 365 nM; baseline: no-protein control; reading: higher = stronger binding
Target: RNA binding protein fox-1 homolog 2, RRM domain, GST-SBP tag (RBFOX2, Homo sapiens, UniProt O43251-10, residues 100-194)
Setting: natural RNA segment, single round, ends assumed
All sequences stand within: GGGAGUUCUACAGUCCGACGAUC … UGGAAUUCUCGGGUGCCAA
Residues (chain): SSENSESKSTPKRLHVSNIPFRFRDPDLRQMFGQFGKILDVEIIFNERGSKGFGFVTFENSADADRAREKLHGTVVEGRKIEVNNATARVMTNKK
Oligonucleotide	RBNS enrichment (R)
UGAUCCUUUAUAUGUGUUUGGAGCUAUGAUAAGUUUUAUGGCAAGCAGUUGGUAUUGUUAACUUUUUAUGAUCAUCAAAAGUACAUAAAAGUCCUAUUAAUCCCCUUACU	0.336
UAACUCAAAAAUUAGGAUGCAAGAGAAAAUACUUCUCUAGAUCCAAACACUGGCCUUCUGUUCCUCUUGAAAUUUACCUCCCAACUUGUUCAUCUCUGCCUUUGGACUAA	0.556
CUCUCACCUGCUUGGUUGCAAGGCUCAUAUUUUUUUGUACCUUUCCUAUAGAUUCUGUAGCAUUUGAGUGUGGCAAUAUUUUAAUUGUGUAUAGAUUUCUAAGAACCAAC	0.364
GGGAUUCCCGUGUCAAGCCAGUGAGGGUCUUAGAAAGAAGGACGGGUGUGUCCCAAGGGCACUUGACUCCCGUUUGUGCUUGAGUAUCAGGAAUACCAAAGGGCCCAGGG	0.506
CUCCUCAGCCAGCACCCAGCUUAACCCCUGCCAUCCCAUGCUGGGCCCUCCAGGCCAAGAGUCUCAGCUGGCCGAGAGUCCAGGCCUUGCCUCCCCCGACCGCCAUGGAG	0.563
GCUAUGAAGAAAGAUGUGCAGAGACUGGGGUGGAGACUAAGCCAAAGAGGAGCUGCCUAGCCUGGCAGCAUUGCCCCGAGCUGAGCCCCCUUGGCCAGGACUUCACAAGG	0.455
UUUGCCCUUCAGGACCCUUCUACUUUUUCCUUCCUGCCCUGUACCUCUCUCUGCUCCUCACCCCCACCCCUGUACCCAGCCACCUUCCUGACUGGGAAGGACAUAAAAGG	0.822
GAAGCUCCUCGGUGCACUUUUGUCUCGGCAGAGCUGGGAGGGAGCAGGCGCUCGCGGAAGCACGUCACUUACUGGGUUUGUUCACCUGUUUCCAGCAAGUUUUGGUCUUU	1.27

Series 5 — action: inhibitor; tested at: 20 µM
Target: Replicase polyprotein 1ab, nsp13 helicase (rep, Severe acute respiratory syndrome coronavirus 2, UniProt P0DTD1)
Structure (SMILES)	inhibition [%]
Nc1nc(=O)c2sc(=O)n([C@@H]3O[C@H](CO)[C@@H](O)[C@H]3O)c2[nH]1	6.81
Nc1nc(Nc2ccccc2)nc2c1ncn2[C@@H]1O[C@H](CO)[C@@H](O)[C@H]1O	-3.53
COc1cc2ncnc(Nc3ccc(Cl)cc3F)c2cc1OC	-4.43
O=C(O)CNC(=O)c1c(O)c2ccccc2n(Cc2ccccc2)c1=O	4.2
Cn1c(=O)[nH]c2ncn(C)c2c1=O	3.09
CNC(=O)c1ccc(N2C(=S)N(c3cnc(C#N)c(C(F)(F)F)c3)C(=O)C23CCC3)cc1F	3.6
O=C1NN(C(=O)Nc2ccc(Br)cc2)[C@@H](c2ccccc2)[C@@H]1c1ccccc1	3.44
COC(=O)[C@@H](N)Cc1ccc(O)c(O)c1	0.58
CCOC(=O)[C@@H](N)Cc1ccc(O)c(O)c1	3.52
O=C(N/N=C/c1ccc([N+](=O)[O-])o1)c1ccc(O)cc1	8
N#Cc1ccnc(N2C(=O)CC[C@H]2C(=O)N(c2cncc(F)c2)[C@H](C(=O)NC2CC(F)(F)C2)c2ccccc2Cl)c1	7.93
Cc1ccc2c(=O)c3cccc(CC(=O)O)c3oc2c1C	28.2
CCOc1cc(N)c(Cl)cc1C(=O)NCC1CN(Cc2ccc(F)cc2)CCO1 (centres unmarked)	-2.65
O=C1c2c(O)cccc2C([C@@H]2O[C@H](CO)[C@@H](O)[C@H](O)[C@H]2O)c2cc(CO)cc(O)c21 (some centres unmarked)	12.1
Cc1cc(-c2ccc(CC(=O)Nc3ccc(-c4cccnc4)cc3)cc2)ccn1	-4.39
Cc1cccc(N(C)C(=S)Oc2ccc3ccccc3c2)c1	1.81
CC(C)N(CCCNC(=O)Nc1ccc(C(C)(C)C)cc1)C[C@H]1O[C@@H](n2ccc3c(N)ncnc32)[C@H](O)[C@@H]1O	6.45
COCC(O)Cn1ccnc1[N+](=O)[O-] (centres unmarked)	8.6
COc1ccc(NC(=O)c2ccc(C(=N)N(C)C)cc2)c(C(=O)Nc2ccc(Cl)cn2)c1	10.3
CCOC(=O)CNC(=O)[C@@H]1CCCN1C(=O)Cc1ccccc1	4.28
Cc1nc(Nc2cnn(C3CCNCC3)c2)nc2c1N(C)C(=O)c1cc3ccccc3cc1N2C	7.77
CC(O)(P(=O)(O)O)P(=O)(O)O	7.61
CN(Cc1ccc(C(C)(C)C)cc1)Cc1cccc2ccccc12	7.1
O=C(/C=C/c1ccc2ccccc2n1)c1ccncc1	91.3
Cc1cc(C)nc(SCC(=O)Nc2ncc(Cc3cccc4ccccc34)s2)n1	-0.38

Mixed results
SMILES	target	assay	setting	endpoint	result
C=CCNC(=O)c1cc([N+](=O)[O-])cc2c(=O)[nH]c(Nc3ccc(Cl)c(Cl)c3)nc12	Replicase polyprotein 1ab, main protease (rep, Severe acute respiratory syndrome coronavirus 2, UniProt P0DTD1)	enzyme activity, inhibitor	20 µM, primary screen	inhibition	34.7%

Excerpt of the above (series 5):
Structure (SMILES)	inhibition [%]
COc1cc2ncnc(Nc3ccc(Cl)cc3F)c2cc1OC	-4.43
O=C(O)CNC(=O)c1c(O)c2ccccc2n(Cc2ccccc2)c1=O	4.2
Cn1c(=O)[nH]c2ncn(C)c2c1=O	3.09
CNC(=O)c1ccc(N2C(=S)N(c3cnc(C#N)c(C(F)(F)F)c3)C(=O)C23CCC3)cc1F	3.6
O=C1NN(C(=O)Nc2ccc(Br)cc2)[C@@H](c2ccccc2)[C@@H]1c1ccccc1	3.44
COC(=O)[C@@H](N)Cc1ccc(O)c(O)c1	0.58
CCOC(=O)[C@@H](N)Cc1ccc(O)c(O)c1	3.52
